# Experimental data from different studies.
# Each line is one published result; not all experiments were run side by side. “And” joins repeats or separate records; there may be more than shown.
# HDAC6: Protein deacetylase HDAC6 (HDAC6, Homo sapiens, UniProt Q9UBN7)
# PARP2: Poly [ADP-ribose] polymerase 2 (PARP2, Homo sapiens, UniProt Q9UGN5)
# UniProt Q9UGN5, sequence (whole entry, looked up): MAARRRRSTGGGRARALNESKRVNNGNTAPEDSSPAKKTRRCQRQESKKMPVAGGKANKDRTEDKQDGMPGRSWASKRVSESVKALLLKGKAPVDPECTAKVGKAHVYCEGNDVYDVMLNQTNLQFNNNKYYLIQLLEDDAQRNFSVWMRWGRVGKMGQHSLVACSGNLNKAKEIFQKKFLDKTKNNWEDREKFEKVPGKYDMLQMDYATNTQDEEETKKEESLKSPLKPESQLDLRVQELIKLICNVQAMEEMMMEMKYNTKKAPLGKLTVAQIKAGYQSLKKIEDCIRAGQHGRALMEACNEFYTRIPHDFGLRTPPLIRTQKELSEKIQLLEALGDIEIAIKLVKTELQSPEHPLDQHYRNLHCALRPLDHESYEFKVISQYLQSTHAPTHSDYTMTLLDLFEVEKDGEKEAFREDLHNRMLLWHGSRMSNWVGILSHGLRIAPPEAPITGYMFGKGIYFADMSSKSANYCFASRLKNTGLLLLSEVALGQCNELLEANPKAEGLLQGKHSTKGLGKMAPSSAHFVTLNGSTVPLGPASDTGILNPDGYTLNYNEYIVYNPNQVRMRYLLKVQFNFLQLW
# PIK3CB: Phosphatidylinositol 4,5-bisphosphate 3-kinase catalytic subunit beta isoform (PIK3CB, Homo sapiens, UniProt P42338)
# UniProt P42338, sequence (whole entry, looked up): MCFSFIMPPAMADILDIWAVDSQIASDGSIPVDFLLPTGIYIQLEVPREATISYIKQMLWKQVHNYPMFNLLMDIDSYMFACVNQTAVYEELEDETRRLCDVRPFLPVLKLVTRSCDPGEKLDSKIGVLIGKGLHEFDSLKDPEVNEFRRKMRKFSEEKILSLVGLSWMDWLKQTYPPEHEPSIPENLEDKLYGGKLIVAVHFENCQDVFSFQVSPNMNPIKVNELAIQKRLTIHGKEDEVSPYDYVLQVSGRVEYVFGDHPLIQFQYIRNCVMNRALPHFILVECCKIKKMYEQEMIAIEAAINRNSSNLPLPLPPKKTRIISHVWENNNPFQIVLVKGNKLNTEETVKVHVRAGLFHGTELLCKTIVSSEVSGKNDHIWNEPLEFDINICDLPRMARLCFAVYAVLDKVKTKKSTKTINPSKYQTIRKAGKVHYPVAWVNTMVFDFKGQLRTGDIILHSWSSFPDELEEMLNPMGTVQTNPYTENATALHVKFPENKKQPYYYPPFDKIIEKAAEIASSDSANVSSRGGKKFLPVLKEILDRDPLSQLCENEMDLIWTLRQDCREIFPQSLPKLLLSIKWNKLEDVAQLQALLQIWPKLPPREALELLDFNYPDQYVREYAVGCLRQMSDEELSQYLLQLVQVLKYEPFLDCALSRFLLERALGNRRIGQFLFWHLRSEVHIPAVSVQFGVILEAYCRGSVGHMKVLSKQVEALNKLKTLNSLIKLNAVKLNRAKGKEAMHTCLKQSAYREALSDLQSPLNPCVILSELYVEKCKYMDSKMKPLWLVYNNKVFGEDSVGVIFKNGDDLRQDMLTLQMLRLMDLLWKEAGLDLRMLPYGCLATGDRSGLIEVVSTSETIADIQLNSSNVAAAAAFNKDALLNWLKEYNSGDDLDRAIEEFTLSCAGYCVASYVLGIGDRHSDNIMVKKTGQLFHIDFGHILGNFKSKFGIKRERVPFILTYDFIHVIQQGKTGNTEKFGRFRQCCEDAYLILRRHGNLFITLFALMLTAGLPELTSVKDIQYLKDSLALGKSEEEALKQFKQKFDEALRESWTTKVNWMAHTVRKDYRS
# CES2: Cocaine esterase (CES2, Homo sapiens, UniProt O00748)
# UniProt O00748, sequence (whole entry, looked up): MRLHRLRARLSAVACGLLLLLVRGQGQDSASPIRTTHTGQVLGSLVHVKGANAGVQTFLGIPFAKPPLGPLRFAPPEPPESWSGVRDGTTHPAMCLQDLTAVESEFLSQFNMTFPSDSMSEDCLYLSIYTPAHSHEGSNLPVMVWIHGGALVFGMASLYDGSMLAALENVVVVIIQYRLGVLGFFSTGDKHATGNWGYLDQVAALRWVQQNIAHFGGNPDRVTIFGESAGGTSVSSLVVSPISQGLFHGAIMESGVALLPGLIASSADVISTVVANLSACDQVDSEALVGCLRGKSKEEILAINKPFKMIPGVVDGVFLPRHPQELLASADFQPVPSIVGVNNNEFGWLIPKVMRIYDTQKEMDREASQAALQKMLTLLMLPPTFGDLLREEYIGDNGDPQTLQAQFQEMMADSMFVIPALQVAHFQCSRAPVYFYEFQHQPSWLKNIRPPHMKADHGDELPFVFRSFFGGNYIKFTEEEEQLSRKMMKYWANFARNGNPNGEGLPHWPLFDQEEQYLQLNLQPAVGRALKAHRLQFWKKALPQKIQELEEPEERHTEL
# HDAC8: Histone deacetylase 8 (HDAC8, Homo sapiens, UniProt Q9BY41)
# UniProt Q9BY41, sequence (whole entry, looked up): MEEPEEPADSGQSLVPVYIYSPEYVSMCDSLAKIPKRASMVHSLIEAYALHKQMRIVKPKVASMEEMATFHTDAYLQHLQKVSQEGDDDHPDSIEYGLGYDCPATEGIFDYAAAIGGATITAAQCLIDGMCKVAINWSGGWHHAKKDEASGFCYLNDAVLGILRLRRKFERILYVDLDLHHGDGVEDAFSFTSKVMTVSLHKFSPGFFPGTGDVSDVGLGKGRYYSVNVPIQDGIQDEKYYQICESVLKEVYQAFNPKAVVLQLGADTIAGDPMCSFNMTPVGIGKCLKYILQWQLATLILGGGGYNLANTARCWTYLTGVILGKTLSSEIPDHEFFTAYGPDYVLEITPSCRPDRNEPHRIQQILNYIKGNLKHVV
# DRD3: D(3) dopamine receptor (DRD3, Homo sapiens, UniProt P35462)
# UniProt P35462, sequence (whole entry, looked up): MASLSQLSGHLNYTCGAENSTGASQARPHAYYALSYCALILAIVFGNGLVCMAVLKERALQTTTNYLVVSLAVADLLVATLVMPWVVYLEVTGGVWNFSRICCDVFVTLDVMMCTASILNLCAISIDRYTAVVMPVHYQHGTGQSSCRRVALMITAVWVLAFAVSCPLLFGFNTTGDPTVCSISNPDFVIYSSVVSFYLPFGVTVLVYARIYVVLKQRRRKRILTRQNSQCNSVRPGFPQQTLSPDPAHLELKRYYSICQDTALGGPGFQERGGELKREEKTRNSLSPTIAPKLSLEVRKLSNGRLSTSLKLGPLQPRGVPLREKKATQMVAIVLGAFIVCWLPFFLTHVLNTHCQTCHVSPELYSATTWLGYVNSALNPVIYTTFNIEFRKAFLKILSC
# PARP10: Protein mono-ADP-ribosyltransferase PARP10 (PARP10, Homo sapiens, UniProt Q53GL7)
# HDAC1: Histone deacetylase 1 (HDAC1, Homo sapiens, UniProt Q13547)
# UniProt P05979, sequence (whole entry, looked up): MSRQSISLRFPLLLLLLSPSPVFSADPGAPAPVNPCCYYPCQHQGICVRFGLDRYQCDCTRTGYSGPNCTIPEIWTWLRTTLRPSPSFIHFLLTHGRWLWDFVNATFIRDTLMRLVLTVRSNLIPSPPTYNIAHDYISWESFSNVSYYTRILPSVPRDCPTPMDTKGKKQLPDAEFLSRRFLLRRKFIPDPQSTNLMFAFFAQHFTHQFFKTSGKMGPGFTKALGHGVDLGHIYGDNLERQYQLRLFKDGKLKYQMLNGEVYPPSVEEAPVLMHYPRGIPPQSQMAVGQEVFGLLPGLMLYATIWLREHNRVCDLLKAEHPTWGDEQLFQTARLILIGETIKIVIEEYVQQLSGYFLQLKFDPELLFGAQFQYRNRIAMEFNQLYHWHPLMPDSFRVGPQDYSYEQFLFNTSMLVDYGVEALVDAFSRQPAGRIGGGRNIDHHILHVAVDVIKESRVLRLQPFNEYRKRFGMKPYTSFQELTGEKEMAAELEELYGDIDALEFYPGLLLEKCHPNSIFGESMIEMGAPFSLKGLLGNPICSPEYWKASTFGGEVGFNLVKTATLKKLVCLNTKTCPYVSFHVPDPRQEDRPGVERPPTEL
# UniProt P05177, sequence (whole entry, looked up): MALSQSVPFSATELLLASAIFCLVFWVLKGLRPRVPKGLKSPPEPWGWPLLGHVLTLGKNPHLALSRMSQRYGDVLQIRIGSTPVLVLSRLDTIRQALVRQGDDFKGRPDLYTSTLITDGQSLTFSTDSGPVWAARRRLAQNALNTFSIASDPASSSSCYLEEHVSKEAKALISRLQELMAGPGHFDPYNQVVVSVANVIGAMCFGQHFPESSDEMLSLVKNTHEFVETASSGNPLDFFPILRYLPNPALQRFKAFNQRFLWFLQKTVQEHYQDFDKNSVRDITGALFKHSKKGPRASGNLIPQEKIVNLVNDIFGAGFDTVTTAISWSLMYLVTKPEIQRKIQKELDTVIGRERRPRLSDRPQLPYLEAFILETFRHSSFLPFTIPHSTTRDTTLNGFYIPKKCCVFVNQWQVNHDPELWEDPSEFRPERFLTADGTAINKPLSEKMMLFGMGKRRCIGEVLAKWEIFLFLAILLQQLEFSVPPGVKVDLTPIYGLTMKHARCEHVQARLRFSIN
# UniProt P16390, sequence (whole entry, looked up): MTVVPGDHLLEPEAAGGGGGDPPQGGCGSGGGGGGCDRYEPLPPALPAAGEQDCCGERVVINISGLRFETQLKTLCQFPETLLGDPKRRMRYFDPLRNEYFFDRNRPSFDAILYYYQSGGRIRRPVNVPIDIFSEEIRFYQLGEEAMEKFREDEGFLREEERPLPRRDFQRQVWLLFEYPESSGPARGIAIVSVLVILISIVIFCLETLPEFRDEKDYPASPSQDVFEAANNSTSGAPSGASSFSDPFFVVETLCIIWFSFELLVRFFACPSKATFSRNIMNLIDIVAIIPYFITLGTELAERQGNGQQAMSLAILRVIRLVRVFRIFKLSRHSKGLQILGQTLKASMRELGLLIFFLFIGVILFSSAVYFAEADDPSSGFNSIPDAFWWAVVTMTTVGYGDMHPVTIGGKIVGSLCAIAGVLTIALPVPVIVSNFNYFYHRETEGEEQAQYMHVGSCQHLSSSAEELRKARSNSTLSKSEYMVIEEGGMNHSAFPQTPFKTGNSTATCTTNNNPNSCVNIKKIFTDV
# UniProt P28062, sequence (whole entry, looked up): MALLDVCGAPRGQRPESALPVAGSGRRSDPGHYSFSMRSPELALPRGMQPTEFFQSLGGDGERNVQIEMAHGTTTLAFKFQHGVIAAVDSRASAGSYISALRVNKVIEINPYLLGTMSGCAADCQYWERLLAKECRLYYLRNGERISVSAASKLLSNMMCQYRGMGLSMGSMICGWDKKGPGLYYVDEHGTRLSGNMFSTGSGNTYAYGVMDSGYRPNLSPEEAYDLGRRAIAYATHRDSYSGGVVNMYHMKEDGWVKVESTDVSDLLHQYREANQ
SMILES,tested on,assay,system,setting,quantity,result
O=C(NO)c1cccc(OS(=O)(=O)Oc2ccc3c(c2)OCO3)c1,HDAC6,"enzyme activity, inhibitor, fluorescence",,,IC50,0.102 µM
N=C(CCl)NCCC[C@H](NC(=O)c1ccc2cc(-c3cc(F)c(F)c(F)c3)ccc2c1)C(=O)NCc1ccccc1,"PADI4 (Homo sapiens, UniProt Q9UM07)","enzyme activity, inhibitor, fluorescence",,with preincubation,IC50,> 2 µM and 2.1 µM
O=c1[nH]c2c(nnn2C2CCCCC2)c2ccc(F)cc12,PARP2,"enzyme activity, inhibitor",,,IC50,> 10 µM
Cc1nc(Nc2ccc3c(c2)/C(=C/c2ccccc2)C(=O)N3Cc2ccccc2)c2ccccc2n1,PIK3CB,"enzyme activity, inhibitor, ADP detection",,,IC50,> 1 µM
CNC(=O)c1cc2c(Oc3ccc(NC(=O)C4(C(=O)Nc5ccc(F)cc5)CC4)cc3)ccnc2cc1OC,"MET (Homo sapiens, UniProt P08581, M1250T)","enzyme activity, inhibitor, radiometric",,,IC50,0.013 µM
O=C(O)CCc1nc(-c2ccccc2)c(-c2ccccc2)o1,CES2,"enzyme activity, inhibitor, fluorescence",,with preincubation,IC50,> 100 µM
COc1cccc(OS(=O)(=O)Oc2cccc(C(=O)NO)c2)c1,HDAC8,"enzyme activity, inhibitor, fluorescence",,,IC50,0.088 µM
O=c1[nH]c2c(nnn2C2CCCCC2)c2ccccc12,PARP2,"enzyme activity, inhibitor",,,IC50,> 10 µM
CSc1ccc(NS(=O)(=O)c2c(C)[nH]c(C)c2C(=O)N2CCC(F)(F)C2)cc1Cl,DRD3,"β-arrestin recruitment, antagonist",,,IC50,7.8 µM
O=C(NO)c1cc(F)cc(OS(=O)(=O)Oc2ccc(-n3ccnc3)cc2)c1,HDAC6,"enzyme activity, inhibitor, fluorescence",,,IC50,0.101 µM
Cc1[nH]c(C)c(S(=O)(=O)Nc2ccc(C(F)(F)F)c(Cl)c2)c1C(=O)N1CCC(F)(F)C1,DRD3,"β-arrestin recruitment, antagonist",,,IC50,2.5 µM
Cc1nc(Nc2ncc(C(=O)Nc3c(C)cccc3Cl)s2)cc(N2CCN(CCO)CC2)n1,CES2,"enzyme activity, inhibitor, fluorescence",,with preincubation,IC50,51 µM
CCOC(=O)c1ccccc1-c1c2ccc(=O)cc-2oc2cc(OCCOCCn3nnnc3C(NCc3ccc(Cl)cc3Cl)C3CC3)ccc12 (stereo not shown),"ALOX15 (Homo sapiens, UniProt P16050)","enzyme activity, inhibitor, absorbance",,,IC50,> 100 µM
Cc1ccc(NS(=O)(=O)c2c(C)[nH]c(C)c2C(=O)N2CCCC2C)cc1Cl (stereo not shown),DRD3,"G protein activation, antagonist, BRET",,,IC50,6.1 µM
COc1cc(-c2cncc3c2CN(C)Cc2cc(N4CCNCC4)ccc2-3)cc(OC)c1OC,"MAP3K11 (Homo sapiens, UniProt Q16584)","enzyme activity, inhibitor",,1 µM,remaining activity,104%
Cc1ccccc1Cn1nnc2c3ccc(F)cc3c(=O)[nH]c21,PARP2,"enzyme activity, inhibitor",,,IC50,> 10 µM
Cc1ccc(S(=O)(=O)NNC(=O)COC(=O)c2ccccc2Nc2cccc(C(F)(F)F)c2)cc1,"PTGS1 (Ovis aries, UniProt P05979)","enzyme activity, inhibitor",,,IC50,15 to 26 µM and 15.3 µM
Cc1ccc(CN2C(=O)C(=Nc3cccc(Cl)c3)c3ccccc32)cc1,PIK3CB,"enzyme activity, inhibitor, ADP detection",,,IC50,0.0648 µM
O=c1[nH]c2c(nnn2Cc2ccccc2C(F)(F)F)c2ccc(F)cc12,PARP10,"enzyme activity, inhibitor",,,IC50,> 10 µM
Cc1ccc(-c2ccc3c(c2)C=C(C(=O)Nc2ccc(C[N+](C)(C)C4CCOCC4)cc2)CCC3)cc1,"CCR5 (Homo sapiens, UniProt P51681)","β-arrestin recruitment, antagonist",,,IC50,0.00479 µM
CCCCC(=O)Nc1ccc(-c2ccc3ncn(CCC)c(=O)c3c2)cn1,"EGFR (Homo sapiens, UniProt P00533)","binding, competition with immobilised ligand",,0.5 µM,remaining binding,100%
O=c1ccc2c(OCCCCOc3ccc(O)cc3)c3ccoc3cc2o1,"Kcna3 (Mus musculus, UniProt P16390)","ion current, inhibitor, patch clamp",,,IC50,0.007 µM and 0.0065 µM
O=C(NO)c1cccc(OS(=O)(=O)Oc2ccc3ccccc3c2)c1,HDAC8,"enzyme activity, inhibitor, fluorescence",,,IC50,0.083 µM
COc1cc2c(cc1OC)C(=O)/C(=C/c1ccccc1[N+](=O)[O-])C2,CES2,"enzyme activity, inhibitor, fluorescence",,with preincubation,IC50,0.88 µM
Cc1[nH]c(C)c(S(=O)(=O)Nc2ccc(C(F)(F)F)c(Cl)c2)c1C(=O)N1C[C@@H](F)[C@@H](F)C1,DRD3,"β-arrestin recruitment, antagonist",,,IC50,2.8 µM
COc1cc2c(cc1OC)C(=O)/C(=C/c1ccc(F)cc1F)C2,CES2,"enzyme activity, inhibitor, fluorescence",,with preincubation,IC50,> 100 µM
N#C[C@@]12C[C@@H]1[C@@H](n1cnc3c(N[C@@H](C4CCC4)C4CC4)nc(I)nc31)[C@H](O)[C@@H]2O,"Cytochrome P450 1A2 (CYP1A2, Homo sapiens, UniProt P05177)","enzyme activity, inhibitor",,,IC50,> 20 µM and 46.5 µM
Cc1[nH]cc(C(=O)N2CCC(F)(F)C2)c1S(=O)(=O)Nc1ccc(C(F)(F)F)c(Cl)c1,DRD3,"G protein activation, antagonist, BRET",,,IC50,3 µM
O=C(NO)c1cncc(OS(=O)(=O)Oc2ccc(-n3ccnc3)cc2)c1,HDAC1,"enzyme activity, inhibitor, fluorescence",,,IC50,1 µM
CCCCn1c(=O)c2cc(F)ccc2c2nnn(Cc3ccc(C)cc3)c21,PARP2,"enzyme activity, inhibitor",,,IC50,> 10 µM
CNc1ncc2c(/C=C/C(=O)N3CCC(OC)CC3)nn(Cc3cccc(C(F)(F)F)c3)c2n1,"CDC42BPA (Homo sapiens, UniProt Q5VT25)","enzyme activity, inhibitor, radiometric",,1 µM,remaining activity,101%
COc1ccc(OS(=O)(=O)Oc2cccc(C(=O)NO)c2)cc1OC,HDAC1,"enzyme activity, inhibitor, fluorescence",,,IC50,2.37 µM
NC(=O)c1ccc(C(=O)NOCc2ccc(F)cc2)cc1,"SIRT6 (Homo sapiens, UniProt Q8N6T7)","enzyme activity, inhibitor, fluorescence",,,IC50,8.26 µM
Cc1[nH]c(C)c(S(=O)(=O)Nc2ccc(C(F)(F)F)c(Cl)c2)c1C(=O)NCC(F)F,DRD3,"G protein activation, antagonist, BRET",,,IC50,7.2 µM
COc1cc2c(cc1OC)C(=O)/C(=C/c1ccccc1N1CCOCC1)C2,CES2,"enzyme activity, inhibitor, fluorescence",,with preincubation,IC50,0.85 µM
CC(C)c1cccc(C(C)C)c1N=C1C(=O)Nc2ccccc21,PIK3CB,"enzyme activity, inhibitor, ADP detection",,,IC50,0.0535 µM
COc1cc2c(cc1OC)C(=O)/C(=C/c1cccc(C)c1)C2,CES2,"enzyme activity, inhibitor, fluorescence",,with preincubation,IC50,3.26 µM
O=C(NO)c1cccc(OS(=O)(=O)Oc2ccc(Oc3ccccc3)cc2)c1,HDAC8,"enzyme activity, inhibitor, fluorescence",,,IC50,1.59 µM
Cc1nc(Nc2ccc3c(c2)CC(=O)N3)c2ccccc2n1,PIK3CB,"enzyme activity, inhibitor, ADP detection",,,IC50,0.0969 µM
COc1cc2c(cc1OC)C(=O)/C(=C/c1ccc(Cl)cc1C)C2,CES2,"enzyme activity, inhibitor, fluorescence",,with preincubation,IC50,> 100 µM
Cc1cc([C@@H](C)Nc2ccccc2C(=O)O)c2nc(N3CCC(F)(F)CC3)c(C#N)c(=O)n2c1,"EPHA2 (Homo sapiens, UniProt P29317)","binding, competition with immobilised ligand",,1 µM,remaining binding,100%
CC(C)N(CCC(=O)c1ccc2ccccc2c1)Cc1ccccc1,"ALDH1A1 (Homo sapiens, UniProt P00352)","enzyme activity, inhibitor, fluorescence",,,IC50,< 10 µM
O=C(/C=C/c1cccc(OS(=O)(=O)Oc2ccccc2)c1)NO,HDAC8,"enzyme activity, inhibitor, fluorescence",,,IC50,2.74 µM
O=C1C(=Nc2ccc(Cl)cc2)c2ccccc2N1Cc1cccc(Cl)c1,PIK3CB,"enzyme activity, inhibitor, ADP detection",,,IC50,0.058 µM
Cc1noc(NS(=O)(=O)c2ccc(N=NN(C)O)cc2)c1C,,ABTS scavenging,,120 µg/mL,inhibition,64.1%
CN(C)c1ncnc2c1ncn2[C@@H]1O[C@H](CO)[C@@H](O)[C@H]1O,"ADORA3 (Homo sapiens, UniProt P0DMS8, M174Y)","G protein activation, agonist",,,EC50,8.5 µM
O=C1C(=Nc2ccccc2I)c2ccccc2N1Cc1ccc([N+](=O)[O-])cc1,PIK3CB,"enzyme activity, inhibitor, ADP detection",,,IC50,0.0351 µM
C=CC(=O)N1CCC(COCC(=O)N2CCN(c3nc(-c4cnc(N)nc4C(F)F)nc(N4CCOC[C@@H]4C)n3)CC2)CC1,"CDKL1 (Homo sapiens, UniProt Q00532)","binding, competition with immobilised ligand",,1 µM,remaining binding,82%
CCCCOc1nc(N)nc(N)c1OCCCOc1ccccc1CCC(=O)O,"Dihydrofolate reductase (Mycobacterium avium, UniProt O30463)","enzyme activity, inhibitor",,,IC50,> 5 µM
Cc1[nH]c(C)c(S(=O)(=O)Nc2ccc(C(F)(F)F)c(Br)c2)c1C(=O)N1CCCC1,DRD3,"β-arrestin recruitment, antagonist",,,IC50,4.9 µM
Cc1cccc(N=C2C(=O)N(Cc3ccc(Br)cc3)c3ccccc32)c1,PIK3CB,"enzyme activity, inhibitor, ADP detection",,,IC50,0.0918 µM
CCCN1CCC(c2cccc(S(C)(=O)=O)c2)CC1,"Cytochrome P450 2D6 (CYP2D6, Homo sapiens, UniProt P10635)","enzyme activity, inhibitor","human, liver microsomes",pH 7.4,IC50,37 µM
Cc1cccc(Cn2nnc3c4ccc(F)cc4c(=O)[nH]c32)c1,PARP10,"enzyme activity, inhibitor",,,IC50,> 10 µM
Cc1ccc(NS(=O)(=O)c2c(C)[nH]c(C)c2C(=O)N2CCC(F)(F)C2)cc1N(C)C,DRD3,"β-arrestin recruitment, antagonist",,,IC50,48 µM
O=C1O[C@H]([C@@H](O)CO)C(O)=C1O,,ABTS scavenging,,90 µg/mL,inhibition,60.8%
COc1cc2c(cc1OC)C(=O)/C(=C/c1ccco1)C2,CES2,"enzyme activity, inhibitor, fluorescence",,with preincubation,IC50,3.23 µM
COc1ccc(C[C@H](NC(=O)[C@H](C)NC(=O)CN2CCOCC2)C(=O)N[C@@H](CC2CCC(F)(F)CC2)C(=O)[C@@]2(C)CO2)cc1,"PSMB8 (Homo sapiens, UniProt P28062)","enzyme activity, inhibitor",,lysate,IC50,0.122 µM
Cc1ccc(Cn2nnc3c4cc(C)ccc4c(=O)[nH]c32)cc1,PARP2,"enzyme activity, inhibitor",,,IC50,> 10 µM
